# Measured values collected from several papers.
# Each numbered part is a random draw from the data of one study; scales do not carry over between parts. Changes are numbered by the printed parent chain.

# Sample 1
# Target: ABI1, truncated, D143A, DHFR fusion (Arabidopsis thaliana)
# Technique: DHFR PCA, deep sequencing
# Sample: yeast
# Setting: methotrexate growth selection, single substitutions
# Added: (+)-ABA 0.39 µM
# Relative to: wild-type fitted maximum
# Direction: higher = stronger binding
# Starting sequence: PYL1, truncated, DHFR fusion (Arabidopsis thaliana); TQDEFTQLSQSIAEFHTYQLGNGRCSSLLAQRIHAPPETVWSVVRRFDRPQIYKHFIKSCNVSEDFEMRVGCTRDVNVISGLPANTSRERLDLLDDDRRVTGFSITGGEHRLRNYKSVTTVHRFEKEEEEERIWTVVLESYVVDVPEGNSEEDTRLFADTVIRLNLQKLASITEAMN; partner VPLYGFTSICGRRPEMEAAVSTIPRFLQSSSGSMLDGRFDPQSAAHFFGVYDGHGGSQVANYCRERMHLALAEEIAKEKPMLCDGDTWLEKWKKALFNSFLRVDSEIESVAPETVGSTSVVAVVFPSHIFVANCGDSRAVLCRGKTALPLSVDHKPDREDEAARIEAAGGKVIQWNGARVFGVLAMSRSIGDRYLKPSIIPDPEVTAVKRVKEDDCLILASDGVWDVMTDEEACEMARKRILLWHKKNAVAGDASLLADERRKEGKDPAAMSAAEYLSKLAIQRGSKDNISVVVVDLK
Variant,relative binding score
E64N,44.9%
E151I,36.6%
E139C,24.5%
P50E,-10.4%
I52D,55.4%
I12H,-0.33%
K168P,-5.91%
Y141G,1.55%
L8M,37.9%
S104I,-5.76%
V78H,46.6%
Q51V,-15.3%
R132E,74.8%
R111K,15.7%
N114F,-19.4%
E64K,57.1%

# Sample 2
# Target: CCND2, cyclin fold, Cln2 fusion (human)
# Technique: yeast growth competition, sequencing
# Sample: yeast
# Setting: weak parent motif
# Relative to: not given
# Direction: higher = stronger binding
# Starting sequence: CUX1 docking peptide (human); SRIRRELFIEEIQ; partner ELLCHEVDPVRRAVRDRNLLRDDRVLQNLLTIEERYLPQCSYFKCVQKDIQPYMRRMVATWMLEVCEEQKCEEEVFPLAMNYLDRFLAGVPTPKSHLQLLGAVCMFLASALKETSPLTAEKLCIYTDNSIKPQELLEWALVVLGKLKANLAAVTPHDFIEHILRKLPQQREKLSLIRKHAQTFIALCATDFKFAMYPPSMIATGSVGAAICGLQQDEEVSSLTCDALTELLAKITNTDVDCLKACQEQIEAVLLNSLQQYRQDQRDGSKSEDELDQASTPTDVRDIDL
Variant,normalised enrichment score
SRIRRELFIEEAQ [I12A],-0.329
SRIRRELFIEEIA [Q13A],-0.623
SRIRAELFIEEIQ [R5A],0.126
SRIRRELAIEEIQ [F8A],0.323
SRIRRALFIEEIQ [E6A],0.233
SRIRRELLIEEIQ [F8L],0.0157
SRIARELFIEEIQ [R4A],0.286

# Sample 3
# Target: RNA binding protein fox-1 homolog 2, RRM domain, GST-SBP tag (RBFOX2, Homo sapiens, UniProt O43251-10, residues 100-194)
# Technique: RNA Bind-n-Seq
# Form: RNA
# Sample: in vitro
# Tested at: 365 nM
# Setting: natural RNA segment, single round, ends assumed
# Relative to: no-protein control
# Direction: higher = stronger binding
# Shared flanks, not repeated: GGGAGUUCUACAGUCCGACGAUC … UGGAAUUCUCGGGUGCCAA
# Target sequence (chain): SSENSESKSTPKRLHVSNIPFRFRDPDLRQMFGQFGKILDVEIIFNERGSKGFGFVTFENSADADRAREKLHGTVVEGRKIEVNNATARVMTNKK
Sequence,RBNS enrichment (R)
GGCAUUUUUUUUUAAUCACUGUUUAUUUUUCUGUUUGCGGCCCAGGAAGCAGUGGGAGGUGGUGGCAGAUAUGCUUUGCAUAUGGAUUGUUAUGUUUUUAUUUGGGCAAG,0.831
GGGAAGCUACACUUCCAAGUUGCUGUGGCUUCACUGCUAAGAAGAGAGUGAGUGAUGGUCUUGGAAAGGAGCUGGGGUGUGGAUGCUAAAGCCCCCAUUCAUACAAACAA,2.08
CCAUUGUUGAUGUGUUGUGGGACAUUUUUAUAUAUUGAACCUGGGUUCUUUUUUGAUCUGUUUUGGUCGUCCCUCCAUUCAACUGCAUCUUUUUUUUUUUUAAAAACAAA,1.43
UGUGACAUCCCCUUCGACCACCAGCUGACCAUGCAUGCCACGUGGCCAGCUGAGUCCAGGACCCUCUCCAGCCCUAUCCCCAUCAAUAAAACUCUGUUUACAUCCACCGG,3.55
CCAGUGAUUUCUCCUGUUUCUUGGUGGGGGUGGGGGGGAAGGUACGUAUUCUGCAAUAUGGCUAAACCCUUUCCUGAUUGAGAGUUAAAGCAAUAGGAGUCAAGUUACUG,0.414
UCUUGCAGUUUUUUUGGUAAUACCGUGGUCUAUUUAUACAAAUAUUAAAAGUGCUGUUUAUAGAGCCUGUGUCAUGUGGCAACUUUCAGAGGCCCCAGAUGUUGGGGGUA,1.22
GGGGACAAAGCAAAAAGUGAUGAUAGUGGUGGAGUUAAUCUUAUCAAGAGUUGUGACAACUUCCUGAGGGAUCUAUACUUGCUUUGUGUUCUUUGUGUCAACAUGAACAA,0.492
GCUCCAAAGAUAAUUACCCCAACACCUUAUCAAUGCUAUACUUCCUCUCAUAAUGGCAGUGUAGGUAUGUGGGAAGUGUCUGAGAUGGAGGACCAGGGAGUCUUUAGAGG,0.514
UGAACAUAUCAAAUAUAAAUUUUUUUAAAGAUCUAACUGUGAAAACAUACAUACCUGUACAUAUUUAGAUAUAAGCUGCUAUAUGUUGAAUGGACCCUUUUGCUUUUCUG,0.421
GCUCUCCUCCCAGCAUCACACCAGCCAUGCAGCCAGCAGGUCCUCCGGAUCACUGUGGUUGGGUGGAGGUCUGUCUGCACUGGGAGCCUCAGGAGGGCUCUGCUCCACCC,0.279
AGUAUUUGUGAAAAGUAAUGAGCCAUAGUACCCAGUCAUGUUAAAUGAAUAUUAAAAGCAUGGAGAGGAAACAUGAGGAACAAUGAAUUUCAACAUAUGGCUUCAGAACA,1
AGCCAGAUCUUCACCUCUUCUUCCGUACGUGACCGCAAGUCCCUGGAACGAGGCAUCUGGAGCUUCCUACUCUCCAGUUUCUCUGUGGAAAUAAAACAUGACUCUUUGUU,0.236

# Sample 4
# Target: XBP1, bZIP domain (human)
# Technique: DHFR protein complementation
# Sample: yeast
# Setting: single substitutions, most at no-binding floor
# Relative to: wild-type JUN-FOS pair
# Direction: higher = stronger binding
# Starting sequence: JUN, bZIP domain (human); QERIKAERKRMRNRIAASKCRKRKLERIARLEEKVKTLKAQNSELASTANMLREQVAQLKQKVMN; partner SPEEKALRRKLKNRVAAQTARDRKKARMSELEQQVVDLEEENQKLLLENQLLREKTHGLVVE
Variant,binding fitness [natural log]
R53S,-1.39
L31S,-1.46
R53A,-1.28
L31N,-1.56
N42L,-1.39
I28T,-1.12
L59C,-0.511
E44V,-0.826
Q55T,-0.753
K36I,-0.994
Q41M,-0.763
L59A,-0.182
R30G,-0.96
E33K,-1.22
K36T,-1.11

# Sample 5
# Molecule: PhoQ, residues 284 288 289 292 302 303 GANMMA
# Technique: Sort-seq
# Item: YFP reporter
# Sample: E. coli
# Setting: PhoQ-PhoP variant library
# Added: 10 µM Mg2+
# Relative to: high Mg2+ state
# Direction: higher = stronger signaling
target,fold induction
"PhoP, residues 12 14 15 18 19 LHTVL (Escherichia coli, UniProt P23836)",19.5
"PhoP, residues 12 14 15 18 19 TQAML (Escherichia coli, UniProt P23836)",22.8
"PhoP, residues 12 14 15 18 19 NQCAL (Escherichia coli, UniProt P23836)",38.6

# Sample 6
# Target: Interferon regulatory factor 5, full length, phosphomimetic (IRF5, Homo sapiens, UniProt Q13568-2, residues 1-514, S451D/S453D/S456D/S462D)
# Technique: protein-binding microarray
# Form: double-stranded DNA, one strand shown
# Sample: in vitro
# Tested at: 940 nM top
# Setting: 60-bp whole probe
# Added: salmon DNA 0.4 mg/ml
# Relative to: random background probes
# Direction: higher = stronger binding
# Shared flanks, not repeated: GCCTAGCAC … GTCTTGATTCGCTTGACGCTGCTG
Sequence,fitted relative affinity
TTATAACTGGGGTTTCGATTAGTGCTA,6.02 z-score
TTCGAACTGAGACTGGATTAGTGCTAG,-0.253 z-score
CTTACTTCCCAATTGTCTTTGTGCTAG,1.56 z-score
GATGAACTGAGTCTCGAGACGTGCTAG,0.729 z-score
TTAGATTTCAGACTGGCTTAGTGCTAG,-0.196 z-score
CTCTAAGACACAAGATCAGAGTGCTAG,-0.0449 z-score
TCACTTATTGCTTCCTCACTGTGCTAG,1.29 z-score
TCAAAATGATTGGTTGAACTGTGCTAG,-0.211 z-score
TTAGATATCAGACTAGATTAGTGCTAG,-0.246 z-score
GGGGATAAACTTAATGGATGGTGCTAG,-0.14 z-score
TTAGGTTTCCTACTGCCTTAGTGCTAG,0.736 z-score
TCATGCATCTGATTTCTCACTGTGCTA,0.633 z-score
TCATGTTTGGTTCTGATACTGTGCTAG,0.801 z-score
GCCGGACTGCTTTTCCTGACGTGCTAG,-0.361 z-score
ATGTGTTTACAGATGTTTTTGTGCTAG,-0.0483 z-score
TCAATTGTGCAATCTTAAACTGTGCTA,-0.271 z-score
TTAGGTTTCGACTATCTGTTAGTGCTA,9 z-score
TTAGGTTTCGGGTTTCGGTTAGTGCTA,11.7 z-score

# Sample 7
# Target: Histone acetyltransferase KAT6A, winged helix 1, GST fusion (KAT6A, Homo sapiens, UniProt Q92794, residues 1-85)
# Technique: protein binding microarray
# Form: double-stranded DNA, one strand shown
# Sample: in vitro
# Tested at: not given
# Setting: 8-mer, flanks averaged, mean of 2 arrays, mostly near background
# Relative to: not given
# Direction: higher = stronger binding
# Residues (chain): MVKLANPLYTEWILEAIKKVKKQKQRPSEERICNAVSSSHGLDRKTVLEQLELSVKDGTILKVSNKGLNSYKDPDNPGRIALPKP
Sequence,E-score
GCTCGGCA,0.187
CCTGCCCC,-0.0325
CGTATCTA,0.0577
GCGAGTAA,0.149
CCACTAAA,-0.178
GCCCACAC,-0.042
GGTATCCA,0.0666
ATTTAAGC,-0.0687
CCTTCGAA,-0.101
GAGTCCAA,-0.0982
AGTATACT,-0.148
CCTTGATC,-0.118
CGGTGATA,0.0926
AATCCACC,-0.21
GACTGCCA,-0.132
ACACACCC,-0.11
AACCAGTC,0.0286
GCGTACAA,-0.0144
AAATTCTT,-0.11
AAAAATTC,-0.198
CCGGGCAA,0.287
AACCTTAC,-0.0919

# Repeated from above (sample 1):
Variant,relative binding score
E64N,44.9%
E151I,36.6%
E139C,24.5%
P50E,-10.4%
I52D,55.4%
I12H,-0.33%
K168P,-5.91%
Y141G,1.55%
L8M,37.9%
S104I,-5.76%
V78H,46.6%
Q51V,-15.3%
R132E,74.8%
R111K,15.7%
N114F,-19.4%
